Experimental data gathered from unrelated publications.
Compare with care: the assays were run in different laboratories.
B1: ClpP2 (Pseudomonas aeruginosa, UniProt Q9HYR9); sequence looked up; chain MKTDDKDREGGDSHGAIGAKLMEYALKVRKVFVTGGVDEKMAKDVVQQLHILASISDDPIYMFVNSPGGHVESGDMIFDAIRFITPKVIMIGSGSVASAGALIYAAADKENRYSLPNTRFLLHQPSGGIQGPASNIEIYRREIVRMKERLDRIFAEATGQTPEKISADTERDFWLNAEEAVQYGLVNKIIVSEREITLPGQ
B2: codY V58A (Clostridioides difficile, UniProt Q18BE1); sequence looked up; chain MASEVLQKTRKINKTLQTSGGSSVSFDLLAGALGDVLSSNVYVVSAKGKVLGLHLNDAQDSSVIEDEYTKQKKFSDEYTQNVLKIDETLENLNGEKILEIFPEEHGRLQKYTTVVPILGSGQRLGTLVLSRYSNSFNDDDLVIAEYSATVVGLEILRAIGEELEEEMRKKAVVQMAIGTLSYSELEAVEHIFAELDGKEGLLVASKIADRVGITRSVIVNALRKFESAGVIESRSLGMKGTHIRILNDKLTDELKKLKNNQ
B3: panD E119A (Mycobacterium abscessus, UniProt B1MGV7); chain MMFRTMMKSKIHRATVTHADLHYVGSVTIDPDLMEAADLLEGEQVTIVDIDNGARLETYAITGTRGSGVIGINGAAAHLVHPGDLVIIIAYGVMTDEEARAFTPRVVFVDSDNKQVELGAHSDDPAYVPENFGLVSPRGLV
B4: PALB2 1-195 I195W (Homo sapiens, UniProt Q86YC2); chain MDEPPGKPLSCEEKEKLKEKLAFLKREYSKTLARLQRAQRAEKIKHSIKKTVEEQDCLSQQDLSPQLKHSEPKNKICVYDKLHIKTHLDEETGEKTSITLDVGPESFNPGDGPGGLPIQRTDDTQEHFPHRVSDPSGEQKQKLPSRRKKQQKRTFISQERDCVFGTDSLRLSGKRLKEQEEISSKNPARSPVTEW
B5: Tad2 1-89 (Bacillus phage SPO1, UniProt B6V311); chain MKTKMSFGEALEVLKQGMQVYRSGWNGKNMFLFLKSSDALASDFGFGFGEYINEPVFGNIIFIKTADNKIHAWVPSQTDVLAEDWDIVS
B6: SthK; chain MAKDIGINSDPNSSSVDKLMKSSGVSNPTYTLVWKVWILAVTLYYAIRIPLTLVFPSLFSPLLPLDILASLALIADIPLDLAFESRRTSGRKPTLLAPSRLPDLLAALPLDLLVFALHLPSPLSLLSLVRLLKLISVQRSATRILSYRINPALLRLLSLVGFILLAAHGIACGWMSLQPPSENPAGTRYLSAFYWTITTLTTIGYGDITPSTPTQTVYTIVIELLGAAMYGLVIGNIASLVSKLDAAKLLHRERVERVTAFLSYKRISPELQRRIIEYFDYLWETRRGYEEREVLKELPHPLRLAVAMEIHGDVIEKVPLFKGAGEEFIRDIILHLEPVIYGPGEYIIRAGEMGSDVYFINRGSVEVLSADEKTRYAILSEGQFFGEMALILRAPRTATVRARAFCDLYRLDKETFDRILSRYPEIAAQIQELAVRRKELESSGLVPRGSVKHHHH
B7: gpU (bacteriophage lambda, UniProt P03732); sequence looked up; chain MKHTELRAAVLDALEKHDTGATFFDGRPAVFDEADFPAVAVYLTGAEYTGEELDSDTWQAELHIEVFLPAQVPDSELDAWMESRIYPVMSDIPALSDLITSMVASGYDYRRDDDAGLWSSADLTYVITYEM
B8: panD F101A (Mycobacterium abscessus, UniProt B1MGV7); chain MMFRTMMKSKIHRATVTHADLHYVGSVTIDPDLMEAADLLEGEQVTIVDIDNGARLETYAITGTRGSGVIGINGAAAHLVHPGDLVIIIAYGVMTDEEARAATPRVVFVDSDNKQVELGEHSDDPAYVPENFGLVSPRGLV
B9: pyrE (Burkholderia cenocepacia, UniProt B4E589); sequence looked up; chain MTGYDRQSISDTTAKILLEVQAVHFNAEKPFIFTSGWASPVYIDCRKLISYPRVRRALMEMAETTITRDIGFEQIDAVAGGETAGIPFAAWIADRMMVPMQYVRKKPKGFGRNAQIEGHLEEGSRVLLVEDLTTDSRSKINFVNALRTAGATVNHCFVLFHYNIFKESVSVLKDIDVDLHALATWWDVLRVAKASGYFETKTLDEVEKFLHAPAEWSAAHGGATAPKE
Sequence of UniProt P33650 (whole entry, looked up): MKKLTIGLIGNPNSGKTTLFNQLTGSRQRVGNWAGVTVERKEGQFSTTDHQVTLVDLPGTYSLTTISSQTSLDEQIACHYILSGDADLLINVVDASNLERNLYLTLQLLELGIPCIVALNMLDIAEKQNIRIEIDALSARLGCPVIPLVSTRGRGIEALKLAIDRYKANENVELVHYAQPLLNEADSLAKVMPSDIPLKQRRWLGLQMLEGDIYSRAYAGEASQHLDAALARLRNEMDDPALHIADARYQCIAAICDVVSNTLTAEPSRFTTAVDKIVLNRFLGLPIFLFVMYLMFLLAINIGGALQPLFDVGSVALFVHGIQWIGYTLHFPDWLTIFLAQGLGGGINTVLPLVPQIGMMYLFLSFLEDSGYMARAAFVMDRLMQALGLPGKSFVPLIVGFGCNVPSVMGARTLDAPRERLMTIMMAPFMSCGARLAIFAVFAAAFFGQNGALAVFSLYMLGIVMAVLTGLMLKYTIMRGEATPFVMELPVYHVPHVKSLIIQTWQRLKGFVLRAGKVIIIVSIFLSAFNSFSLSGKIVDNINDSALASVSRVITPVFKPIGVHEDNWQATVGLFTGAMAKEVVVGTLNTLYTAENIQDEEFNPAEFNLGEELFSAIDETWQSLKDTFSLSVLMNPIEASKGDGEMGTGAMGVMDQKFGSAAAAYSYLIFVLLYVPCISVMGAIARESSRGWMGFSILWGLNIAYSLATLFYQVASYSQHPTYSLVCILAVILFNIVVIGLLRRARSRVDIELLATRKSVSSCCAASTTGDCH
Sequence of UniProt B7HFR2 (whole entry, looked up): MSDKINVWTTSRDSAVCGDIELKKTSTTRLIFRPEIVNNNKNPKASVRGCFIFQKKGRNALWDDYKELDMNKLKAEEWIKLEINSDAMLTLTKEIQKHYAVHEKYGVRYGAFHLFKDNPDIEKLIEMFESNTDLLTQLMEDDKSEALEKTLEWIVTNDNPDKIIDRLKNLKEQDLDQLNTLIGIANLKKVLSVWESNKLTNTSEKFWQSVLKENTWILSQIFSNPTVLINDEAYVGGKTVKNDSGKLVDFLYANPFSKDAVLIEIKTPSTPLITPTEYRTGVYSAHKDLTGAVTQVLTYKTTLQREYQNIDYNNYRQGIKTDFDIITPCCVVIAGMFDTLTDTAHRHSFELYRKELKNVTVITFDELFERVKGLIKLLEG
Sequence of UniProt Q12527 (whole entry, looked up): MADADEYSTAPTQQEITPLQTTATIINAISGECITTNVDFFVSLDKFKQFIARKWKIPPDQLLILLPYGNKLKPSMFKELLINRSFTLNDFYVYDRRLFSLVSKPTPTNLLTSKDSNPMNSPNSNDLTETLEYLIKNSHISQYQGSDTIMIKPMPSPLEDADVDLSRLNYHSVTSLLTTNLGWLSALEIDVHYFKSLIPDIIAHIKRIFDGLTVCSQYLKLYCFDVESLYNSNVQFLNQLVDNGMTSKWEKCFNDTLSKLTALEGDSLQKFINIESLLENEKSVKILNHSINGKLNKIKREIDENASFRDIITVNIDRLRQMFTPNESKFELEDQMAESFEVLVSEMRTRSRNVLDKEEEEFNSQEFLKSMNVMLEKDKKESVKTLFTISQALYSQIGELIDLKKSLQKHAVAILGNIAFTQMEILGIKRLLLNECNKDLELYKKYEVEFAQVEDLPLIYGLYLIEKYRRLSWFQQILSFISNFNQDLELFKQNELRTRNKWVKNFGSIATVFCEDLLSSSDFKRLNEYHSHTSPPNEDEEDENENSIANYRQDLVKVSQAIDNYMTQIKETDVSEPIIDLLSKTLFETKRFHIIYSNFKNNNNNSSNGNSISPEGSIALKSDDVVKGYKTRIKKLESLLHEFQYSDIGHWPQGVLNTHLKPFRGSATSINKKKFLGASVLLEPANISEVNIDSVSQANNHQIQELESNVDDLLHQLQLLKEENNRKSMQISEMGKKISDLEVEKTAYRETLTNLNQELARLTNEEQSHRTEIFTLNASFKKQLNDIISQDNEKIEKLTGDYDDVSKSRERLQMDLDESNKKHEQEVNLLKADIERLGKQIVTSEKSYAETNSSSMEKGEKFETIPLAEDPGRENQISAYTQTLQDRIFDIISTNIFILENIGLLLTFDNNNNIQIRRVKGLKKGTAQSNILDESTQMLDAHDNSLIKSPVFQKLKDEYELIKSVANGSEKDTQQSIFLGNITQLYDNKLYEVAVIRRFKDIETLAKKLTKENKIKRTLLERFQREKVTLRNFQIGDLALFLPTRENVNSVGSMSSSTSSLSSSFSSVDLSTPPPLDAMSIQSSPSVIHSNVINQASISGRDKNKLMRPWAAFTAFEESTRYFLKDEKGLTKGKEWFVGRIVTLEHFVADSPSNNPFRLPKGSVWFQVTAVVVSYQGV

Molecule	target or system	assay	system	setting	how to read	measurement	result
B1 (ClpP2)	itself	cryo-EM				subunits per oligomer	7
B2 (codY V58A)	itself	SEC				subunits per oligomer	2
B3 (panD E119A)	itself	native gel				subunits per oligomer	4
B4 (PALB2 1-195 I195W)	itself	AUC				subunits per oligomer	4
feoB (Escherichia coli, UniProt P33650)	itself	SEC				subunits per oligomer	18
sduA (Bacillus cereus, UniProt B7HFR2)	itself	SEC-MALS				subunits per oligomer	4
B5 (Tad2 1-89)	itself	SEC-MALS				subunits per oligomer	4
ATG11 (Saccharomyces cerevisiae, UniProt Q12527)	itself	cross-linking		0.8 µM, together with: BS3 32 µM		subunits per oligomer	2
B6 (SthK)	itself	native MS				subunits per oligomer	4
B7 (gpU)	itself	cryo-EM				subunits per oligomer	6
insulin human		refers to: ADCY1 mRNA	EcoHIV-infected mouse, brain	i.p., dose not given	reference: PBS	fold change	0.975
B8 (panD F101A)	itself	native gel				subunits per oligomer	4
B9 (pyrE)	itself	crystal structure				subunits per oligomer	6

Some of these lines once more:
Molecule	target or system	assay	system	setting	how to read	measurement	result
B1 (ClpP2)	itself	cryo-EM				subunits per oligomer	7
B8 (panD F101A)	itself	native gel				subunits per oligomer	4
